{"data": "Measurements collected from several papers", "organism": "Escherichia coli", "note": "Protocols differ between the studies behind these lines."}
{"Structure (SMILES)": "CCCCCCCC(=O)N[C@@H](CCN)C(=O)N[C@H](C(=O)N[C@@H](CCN)C(=O)N[C@H]1CCNC(=O)[C@H]([C@@H](C)O)NC(=O)[C@H](CCN)NC(=O)[C@H](CCN)NC(=O)[C@H](Cc2ccc(Br)cc2)NC(=O)[C@@H](CC(C)C)NC(=O)[C@H](CCN)NC1=O)[C@@H](C)O", "assay": "broth microdilution", "system": "ATCC 25922, colistin-susceptible", "MIC": "0.25 to 0.5 mg/L"}
{"Structure (SMILES)": "O=c1n(CCNCCOS(=O)(=O)c2ccccc2)c(=O)n(S(=O)(=O)c2ccccc2)c(=O)n1S(=O)(=O)c1ccccc1", "assay": "microbial growth, broth dilution", "MIC": "4 mg/L"}
{"Structure (SMILES)": "CC[C@H](C)[C@H](NC(=O)[C@@H](CCCNC(=N)N)NC(=O)[C@H](CCCNC(=N)N)NC(=O)[C@@H]1CCCN1C(=O)[C@@H]1CCCN1C(=O)[C@H](Cc1ccccc1)NC(=O)[C@@H]1CCCN1C(=O)[C@H](CCCNC(=N)N)NC(=O)[C@@H]1CCCN1C(=O)[C@H](CC(C)C)NC(=O)[C@H](Cc1ccc(O)cc1)NC(=O)[C@@H]1CCCN1C(=O)[C@@H]1CCCN1C(=O)[C@H](CCCCN)NC(=O)[C@H](CC(=O)O)NC(=O)[C@@H](N)C(C)C)C(=O)N[C@@H](Cc1ccc(O)cc1)C(=O)N[C@@H](CC(N)=O)C(=O)N[C@H](CCCNC(=N)N)C(N)=O", "assay": "broth microdilution", "system": "ATCC 25922", "conditions": "18 h, 37 °C, 25% MHB2", "MIC": "16 mg/L"}
{"Structure (SMILES)": "CCCCCCCC(=O)N[C@@H](CCN)C(=O)N[C@H](C(=O)N[C@@H](CCN)C(=O)N[C@H]1CCNC(=O)[C@H]([C@@H](C)O)NC(=O)[C@H](CCN)NC(=O)[C@H](CCN)NC(=O)[C@H](CC(C)C)NC(=O)[C@@H](Cc2ccc(C(F)(F)F)cc2)NC(=O)[C@H](CCN)NC1=O)[C@@H](C)O", "assay": "broth microdilution", "system": "mcr-1, colistin-resistant", "MIC": "1 to 2 mg/L"}
{"Structure (SMILES)": "CC[C@H](C)[C@H](NC(=O)[C@@H](CCCNC(=N)N)NC(=O)[C@H](CCCNC(=N)N)NC(=O)[C@H](C)NC(=O)[C@H](Cc1c[nH]c2ccccc12)NC(=O)[C@H](CCCNC(=N)N)NC(=O)[C@@H]1CCCN1C(=O)[C@H](CCCNC(=N)N)NC(=O)[C@@H]1CCCN1C(=O)[C@H](CC(C)C)NC(=O)[C@H](Cc1ccc(O)cc1)NC(=O)[C@@H]1CCCN1C(=O)[C@@H]1CCCN1C(=O)[C@H](CCCCN)NC(=O)[C@H](CC(=O)O)NC(=O)[C@@H](N)C(C)C)C(=O)N[C@@H](Cc1ccc(O)cc1)C(=O)N[C@@H](CC(N)=O)C(=O)N[C@H](CCCNC(=N)N)C(N)=O", "assay": "broth microdilution", "system": "BW25113", "conditions": "18 h, 37 °C, 25% MHB2", "MIC": "16 mg/L"}
{"Structure (SMILES)": "COc1ccc2c(c1OC)C[NH+]1CCc3cc4c(cc3C1C2)OCO4.[Cl][Fe-]([Cl])([Cl])[Cl] (stereo not shown)", "conditions": "24 h, 37 °C", "MIC": "> 1600 µM"}
{"Structure (SMILES)": "CC[C@H](C)[C@H](NC(=O)CNC(=O)[C@@H](NC(=O)CNC(=O)[C@@H](NC(=O)CNC(=O)[C@@H](NC(=O)[C@@H](NC(=O)[C@H](CCC(N)=O)NC(=O)[C@H](CCC(=O)O)NC(=O)[C@@H](NC(=O)[C@H](CC(C)C)NC(=O)[C@H](CCCNC(=N)N)NC(=O)[C@H](Cc1ccccc1)NC(=O)[C@@H](NC(=O)[C@H](CC(N)=O)NC(=O)[C@H](CCCCN)NC(=O)CNC(=O)[C@H](CCSC)NC(=O)[C@H](CCCCN)NC(=O)CNC(=O)[C@H](CC(C)C)NC(=O)[C@H](CCCCN)NC(=O)[C@H](CCCCN)NC(=O)CNC(=O)[C@H](Cc1ccccc1)NC(=O)[C@H](CCCCN)NC(=O)[C@H](CCCCN)NC(=O)[C@H](CC(C)C)NC(=O)[C@H](Cc1c[nH]c2ccccc12)NC(=O)CN)C(C)C)C(C)C)C(C)C)C(C)C)C(C)C)C(C)C)C(=O)N[C@@H](CC(N)=O)C(=O)N[C@@H](C)C(=O)N[C@@H](CC(C)C)C(=O)N[C@@H](CO)C(=O)O", "assay": "broth microdilution", "system": "K88, Mueller-Hinton broth", "conditions": "37 °C", "MIC": "4.39 mg/L"}
{"Structure (SMILES)": "CC[C@H](C)[C@H](NC(=O)[C@@H](CCCNC(=N)N)NC(=O)[C@H](CCCNC(=N)N)NC(=O)[C@@H]1CCCN1C(=O)[C@@H]1CCCN1C(=O)[C@H](CCCNC(=N)N)NC(=O)[C@@H]1CCCN1C(=O)[C@H](CCCNC(=N)N)NC(=O)[C@@H]1CCCN1C(=O)[C@H](CC(C)C)NC(=O)[C@H](Cc1ccc(O)cc1)NC(=O)[C@H](Cc1c[nH]cn1)NC(=O)[C@@H]1CCCN1C(=O)[C@H](CCCCN)NC(=O)[C@H](CC(=O)O)NC(=O)[C@@H](N)C(C)C)C(=O)N[C@@H](Cc1ccc(O)cc1)C(=O)N[C@@H](CC(N)=O)C(=O)N[C@H](CCCNC(=N)N)C(N)=O", "assay": "broth microdilution", "system": "BW25113", "conditions": "18 h, 37 °C, 25% MHB2", "MIC": "8 mg/L"}
{"Structure (SMILES)": "CC(C)Oc1ccc(B(O)O)c(F)n1", "assay": "bacterial growth", "system": "TEM-3 ESBL clinical isolate", "conditions": "without cefotaxime", "MIC": "1020 mg/L"}
{"Structure (SMILES)": "CC[C@H](C)[C@H](NC(=O)[C@@H](NC(=O)[C@H](CCCCN)NC(=O)[C@H](CCC(N)=O)NC(=O)[C@@H](NC(=O)[C@H](Cc1c[nH]c2ccccc12)NC(=O)[C@H](CCCCN)NC(=O)[C@H](CCCCN)NC(=O)[C@H](CC(C)C)NC(=O)[C@H](CCCNC(=N)N)NC(=O)[C@H](Cc1ccccc1)NC(=O)[C@@H](N)C(C)C)[C@@H](C)CC)C(C)C)C(N)=O", "conditions": "24 h, 37 °C, Mueller-Hinton broth, human serum 10%", "MIC": "128 µM"}
{"Structure (SMILES)": "COc1c(NC(=O)c2ccc(NC(=O)[C@H](CC(N)=O)NC(=O)c3ccc(NC(=O)[C@@H](N)Cc4ccccc4)c(OC)c3O)c(OC)c2O)ccc(C(=O)Nc2ccc(C(=O)O)cc2)c1O", "system": "empty cosmid vector", "conditions": "16 h, 37 °C", "MIC": "> 16 mg/L"}
{"Structure (SMILES)": "O=C(O)CN(CCOCCOCCN(CC(=O)O)CC(=O)O)CC(=O)O", "system": "NDM-1 producing", "conditions": "compound alone", "MIC": "> 2000 µM"}
{"Structure (SMILES)": "CC1(C)[C@H](NC(=O)/C(=N\\OC2(C(=O)O)CCCC2)c2csc(N)n2)C(=O)N1OS(=O)(=O)O", "assay": "agar dilution", "system": "08-85, mcr-1", "MIC": "0.25 mg/L"}
{"Structure (SMILES)": "CC[C@H](C)[C@H](NC(=O)[C@@H](CCCNC(=N)N)NC(=O)[C@H](CCCNC(=N)N)NC(=O)[C@H](Cc1ccccc1)NC(=O)[C@H](Cc1c[nH]c2ccccc12)NC(=O)[C@H](CCCNC(=N)N)NC(=O)[C@@H]1CCCN1C(=O)[C@H](CCCNC(=N)N)NC(=O)[C@@H]1CCCN1C(=O)[C@H](CC(C)C)NC(=O)[C@H](Cc1ccc(O)cc1)NC(=O)[C@@H]1CCCN1C(=O)[C@@H]1CCCN1C(=O)[C@H](CCCCN)NC(=O)[C@H](CC(=O)O)NC(=O)[C@@H](N)C(C)C)C(=O)N[C@@H](Cc1ccc(O)cc1)C(=O)N[C@@H](CC(N)=O)C(=O)N[C@H](CCCNC(=N)N)C(N)=O", "assay": "broth microdilution", "system": "MC4100", "conditions": "18 h, 37 °C, 25% MHB2", "MIC": "32 mg/L"}
{"Structure (SMILES)": "Cc1ccnc(-c2cc(C(=O)NCCCCCC(=O)N[C@@H](CCCNC(=N)N)C(=O)N[C@@H](Cc3c[nH]c4ccccc34)C(=O)N[C@@H](CCCNC(=N)N)C(=O)N[C@@H](Cc3c[nH]c4ccccc34)C(=O)N[C@@H](CCCNC(=N)N)C(=O)N[C@@H](Cc3c[nH]c4ccccc34)C(N)=O)ccn2)c1", "system": "ATCC 25922, susceptible", "conditions": "18 h, 37 °C, LED light 1.57 mW for 10 min", "MIC": "16 µM"}
{"Structure (SMILES)": "CC(=O)NC[C@H]1CN(c2ccc(N3CCN(C(=O)CN)CC3)c(F)c2)C(=O)O1", "assay": "broth dilution", "system": "drug-resistant", "MIC": "> 200 µM"}
{"Structure (SMILES)": "CC(C)C[C@@H](NC(=O)[C@H](NC(=O)[C@@H](CCCCN)NC(=O)[C@@H](CCCCN)NC(=O)[C@@H](CC(C)C)NC(=O)[C@@H](Cc1c[nH]c2ccccc12)NC(=O)[C@@H](CCCCN)NC(=O)[C@@H](Cc1c[nH]c2ccccc12)NC(=O)[C@@H](CC(C)C)NC(=O)[C@@H](CCCCN)NC(=O)[C@@H](CCCCN)NC(=O)[C@H](N)C(C)C)C(C)C)C(N)=O", "conditions": "24 h, 37 °C, Mueller-Hinton broth, human serum 10%", "MIC": "4 µM"}
{"Structure (SMILES)": "CC1(C)S[C@@H]2[C@H](NC(=O)[C@H](NC(=O)C3=C(O)C(c4ccccc4F)NC3=O)c3ccccc3)C(=O)N2[C@H]1C(=O)O (stereo partly shown)", "assay": "broth microdilution", "system": "isolate IU 356 A, KPC-3, VIM-1, TEM", "conditions": "no clavulanic acid", "MIC": "> 200 mg/L"}
{"Structure (SMILES)": "O=C(c1ccccc1O)c1[nH]c(Cl)c(Cl)c1-n1c(C(=O)c2ccccc2O)cc(Cl)c1Cl", "assay": "microbial growth", "system": "K12, MG1655", "MIC": "> 64 µM"}
